# Measurements of several laboratories.
# Numbered parts are unrelated; each lists some results of a single study. Changes are numbered by the printed parent chain.

# Set 1 — technique: RNA Bind-n-Seq; form: RNA; matrix: in vitro; concentration: 200 nM; notes: whole 134-nt RNA, ends assumed; added: 150 mM KCl; reference: input library; direction: higher = stronger binding
# Target: Fragile X messenger ribonucleoprotein 1, C-terminal low-complexity region (Fmr1, Mus musculus, UniProt P35922)
Sequence,log2 enrichment
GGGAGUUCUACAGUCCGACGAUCUGGCCCUGGUGGCAUGCGGGGAGGAAGAGGUGGCCUCAUGGAUCGUGGUGGUCCCGGUGGAAUGUUCAGAGGUGGCCGUAGUGGAGACAGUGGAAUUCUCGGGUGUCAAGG,-0.207
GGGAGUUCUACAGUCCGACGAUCACCAUACUUGACAACUUCUGAUUGAAUGCCCAUGCCCAAUGCCAACAUCCACGAACGCCAAUGACCAAUGCAGUACAAUGCCAGUGUUUCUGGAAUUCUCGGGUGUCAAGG,-0.268
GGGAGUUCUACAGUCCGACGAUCGUCCUGUGCUACACAUCGUAUGUACCGAAUCAAACCCAAAUUUUUAAACCCCCCCAAAAAAGUAUUAUGUUACGCCGUUCGGAUCUGCACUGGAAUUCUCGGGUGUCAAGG,0.056
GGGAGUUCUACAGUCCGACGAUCCUCAAGUCCUGUGCUACACAUCGUAUGUACCGAAUCGGAGGAAAGGAAAAAGGAAAGUAUUAUGUUACGCCGUUCGGAUCUGCACUUCCAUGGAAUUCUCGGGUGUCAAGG,-0.365
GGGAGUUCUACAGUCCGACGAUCCCUCAAGUCCUGUGCUACACAUCGUAUGUACCGAAUCGGGAGGGAGGGAGGGAAAGUAUUAUGUUACGCCGUUCGGAUCUGCACUUCCAGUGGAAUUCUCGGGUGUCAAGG,1.28
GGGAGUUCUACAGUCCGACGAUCUGGCCCUGGUGGCAUGCGGGGAGGAAGAGGUGGCCUCAUGGAUCGUGGUGGUCCCGGUGGAAUGUUCAGAGGUGGCCGUGGUGGUGACAGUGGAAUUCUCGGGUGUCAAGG,0.13
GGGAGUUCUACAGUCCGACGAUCCUGUGCUACACAUCGUAUGUACCGAAUCGGGGAAAAAGGGGAAAAAGGGGAAAAAAAGGGGAAAGUAUUAUGUUACGCCGUUCGGAUCUGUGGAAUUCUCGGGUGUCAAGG,-0.378
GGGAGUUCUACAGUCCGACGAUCACCAUGCAGGUGGGCAUCUUUGGGAAGUGGGGCAAGGGGGGGAUAGGGAGGGGGGUAACACUUUGGGAACAGGUGGUCCUAGGUCGUUUCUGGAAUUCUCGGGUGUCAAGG,0.634
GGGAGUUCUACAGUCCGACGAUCCCUGUGCUACACAUCGUAUGUACCGAAUCGGGGUUUUUUGGUUUUUUGGGUUUUUUGGGGAAAGUAUUAUGUUACGCCGUUCGGAUCUGCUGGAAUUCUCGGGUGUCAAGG,-0.525

# Set 2 — technique: protein-binding microarray; form: double-stranded DNA, one strand shown; matrix: in vitro; concentration: 250 nM; notes: 60-bp whole probe; added: salmon DNA 0.4 mg/ml; reference: random background probes; direction: higher = stronger binding; shared flanks, not repeated: GCCTAGCAC … GTCTTGATTCGCTTGACGCTGCTG
# Target: Interferon regulatory factor 5, full length, phosphomimetic (IRF5, Homo sapiens, UniProt Q13568-2, residues 1-514, K96S/S451D/S453D/S456D/S462D)
Sequence,log fluorescence [z-score]
TTAGGTTTCGGTTTCGGTAAGTGCTAG,12.2
TGAGGACTGGACACTGGGTTAGTGCTA,-0.391
TTATAACTGAGTCTCGATTAGTGCTAG,0.979
GCAGATTGGGTTTCAGGGCTGTGCTAG,0.246
TTAGGTATCCTTTTCCTCTAGTGCTAG,0.476
TTAGATTTCCGTTCCGATTAGTGCTAG,1.85
GACGATCTCAGACTAGAGACGTGCTAG,-0.351
GACGGTATCCATCTCCTGACGTGCTAG,0.0221
TTCCTTTGCTTTCTCCCAAGGTGCTAG,2.53
GACGGTTCCCTTTTCATGACGTGCTAG,0.326
TTAGATTTCGGTCTCGGTTAGTGCTAG,7.98
TTACGACTGCTTATCCTTTAGTGCTAG,0.757
TTAGGTTCCGGGTTCGGTTAGTGCTAG,0.609
TTAGGACTGGTTATCCTTTAGTGCTAG,-0.314
TTAGGACTGGTTATCGGTTAGTGCTAG,3.96
GACGATTTCGGGAATGGAGACGTGCTA,2.3
CTCATTCTCTGCTTGCGTCTGTGCTAG,0.384
GACGGTCTCCTACTGCTTACGTGCTAG,-0.175

# Set 3 — technique: DHFR PCA, deep sequencing; matrix: yeast; added: (+)-ABA 0.032 µM; reference: wild-type fitted maximum; direction: higher = stronger binding
# Target: ABI1, truncated, D143A, DHFR fusion (Arabidopsis thaliana)
# Notes: methotrexate growth selection, single substitutions
# Starting sequence: PYL1, truncated, DHFR fusion (Arabidopsis thaliana); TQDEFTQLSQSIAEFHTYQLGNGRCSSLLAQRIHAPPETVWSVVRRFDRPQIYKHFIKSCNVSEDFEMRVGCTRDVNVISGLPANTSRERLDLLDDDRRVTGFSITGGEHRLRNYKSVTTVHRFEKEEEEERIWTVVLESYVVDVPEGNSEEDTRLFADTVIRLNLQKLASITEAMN
Substitution,relative binding score
D95P,1.64%
V142M,-4.22%
Q167G,5.8%
H122T,-1.86%
T160E,11%
N22R,33.9%
V143T,11.2%
T73A,5.67%
A158F,0.123%
Y115F,26.5%
V143G,-1.94%
N165H,5.48%
L82I,15.9%
L164H,9.91%
E89K,-2.69%
L156M,22.1%
M176R,7.28%
P50W,-4.82%

# Set 4 — technique: RNA Bind-n-Seq; form: RNA; matrix: in vitro; concentration: 100 nM; reference: input RNA pool; direction: higher = stronger binding
# Target: RING finger protein unkempt homolog, zinc fingers 1-6, SBP tag (UNK, Homo sapiens, UniProt Q9C0B0, residues 30-357)
# Sequence of UniProt Q9C0B0 (30-357, looked up): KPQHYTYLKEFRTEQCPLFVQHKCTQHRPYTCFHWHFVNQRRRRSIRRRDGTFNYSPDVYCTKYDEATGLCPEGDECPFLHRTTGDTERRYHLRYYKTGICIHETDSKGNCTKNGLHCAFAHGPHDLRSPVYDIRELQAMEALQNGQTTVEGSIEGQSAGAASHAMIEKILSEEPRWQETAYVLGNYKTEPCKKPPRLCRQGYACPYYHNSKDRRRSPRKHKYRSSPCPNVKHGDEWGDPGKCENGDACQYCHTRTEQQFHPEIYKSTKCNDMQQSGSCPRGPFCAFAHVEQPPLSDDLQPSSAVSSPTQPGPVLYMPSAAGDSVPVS
# Notes: RNA with constant flanks, vertebrate orthologous sites, ends assumed
Sequence,bound/input enrichment
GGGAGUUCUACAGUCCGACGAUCGACUGGAUGCCGUAUAUACCGUACCCAAGGCAGUGACUUCCACUUUCUACACGUUGUUAGUUUAAAGUCAUCUCUUAUUUCAGCGUCUAGACUGGAUUGUUAGUGCUACUACUCUUUGUACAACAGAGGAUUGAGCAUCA,0.554 ratio
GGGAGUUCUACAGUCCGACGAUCUGGGUUACUCUUAUUAUUAUCAAGUAGCUGGAAUUGUGAAGGUCGGAGUAGUUAGAAUUUUAGCUUUUAUUCCUUUUUUUGUAUUACUAUCCAUGUGUAUAAAUUAUUGAUCAUGUUGCUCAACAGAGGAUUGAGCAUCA,1.65 ratio
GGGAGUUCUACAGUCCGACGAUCGGAGGGAUUUGAGUAUUAGCAUUUAAAAAAAAUUUUUGUCUUUUAUCCCUACCUAAUACUUAGCCUAAAAAUUUCAGUUCUUUGAACUGAUAAUUCUGAUUUUCAAAUUAUUGUUGCUGGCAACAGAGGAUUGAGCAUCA,0.641 ratio
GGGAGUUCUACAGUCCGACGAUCGGGACGCUUUGAUGUAAAAAUUGAAGUUAAGAGCUGAUCACAAGCACAAAUCUUUCCCACUAGCCAUUUAAAAAAAGUUAAAAAAAAGAUACAAAAAACAAAAACCUACUAGUCUUGAAUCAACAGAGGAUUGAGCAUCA,2.19 ratio
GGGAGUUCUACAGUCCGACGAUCCAUGUCCUUGUUACUGUGAUAUUUAAAAUAGCCACAGUAUUCACCUUUUCCAAAUGAUUCUAGUAAUAUCUUUCUCUUAUCUGUUAUUUAUCAAUUUUUCCCAGUAUUUUUAUAUGGAAACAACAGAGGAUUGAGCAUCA,1.76 ratio
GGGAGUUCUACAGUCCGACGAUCGUUGUGACCCCUUUAACAUACAUAAAAAACUAGCCAAAAAAAACUUGCAUGUAAUUGACUUAGAUGAUGCCACUUUCCUGAGUGCAAAAUUUGGCAGACAGCUUGUACCUGGUUGGAAGCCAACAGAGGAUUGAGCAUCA,1.13 ratio
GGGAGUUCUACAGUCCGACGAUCUUACAGUCAUUGAUGGACUCUAUUUUUUUAUUAUUACUUGGACCUUGGUCGUUUUUAUACUAGCAAAAUGUCUUGUUUUAAUUUGUGUUGGCGGGGGGAGGGAGUGAACUUGCUGAUUGUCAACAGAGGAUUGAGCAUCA,2.44 ratio
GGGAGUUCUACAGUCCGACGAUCUAAGAUUUGAAUACUGGAGCCAAACUAAGGGGCUUGAAAGUAAAGAGAUUUGUAAAAUGCCGGCAUACACAGCUGCAAGACUGCAUCACCUCUGGCUGCUGUGUCCAGGUGUUUAUUACACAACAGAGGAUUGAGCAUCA,0.218 ratio

# Some of these lines once more (set 2):
Sequence,log fluorescence [z-score]
TTACGACTGCTTATCCTTTAGTGCTAG,0.757
GACGATTTCGGGAATGGAGACGTGCTA,2.3
TTAGGACTGGTTATCCTTTAGTGCTAG,-0.314
TTAGGTTCCGGGTTCGGTTAGTGCTAG,0.609
GACGGTCTCCTACTGCTTACGTGCTAG,-0.175
TTAGATTTCGGTCTCGGTTAGTGCTAG,7.98
TTAGGTATCCTTTTCCTCTAGTGCTAG,0.476
